Assay results pooled from the literature.
Compare with care: the assays were run in different laboratories. ± marks the error that the study gave.

COc1cc2nccc(Oc3ccc(NC(=O)NC4CC4)c(Cl)c3)c2cc1C(N)=O  AUC(0-t) increase (Sprague-Dawley rats male, plasma; oral, dose not given, added: posaconazole; baseline: without posaconazole): 94.5%
CN1CCC[C@H](CN2c3ccccc3Sc3ccccc32)C1.Cl  AUC(0-t) (Wistar rat female, heart; oral, 16 mg/kg): 13100 ng·h/mL
C1=C/COCc2cc(ccc2OCCN2CCCC2)Nc2nccc(n2)-c2cccc(c2)COC/1  AUC(0-t) increase (rat Sprague-Dawley male, plasma; oral, dose not given, added: voriconazole; baseline: without voriconazole): 23%
C=CC(=O)N1CCC(Oc2cc3c(Nc4ccc(Cl)c(Cl)c4F)ncnc3cc2OC)CC1  AUC(0-t) (male Sprague-Dawley rats, plasma; oral, 2 mg/kg, added: schisandrin B pretreatment 20 mg/kg daily 1 week): 6020 ± 1560 ng·h/mL
CCCC(CCC)NC(=O)c1ccc2c(c1)OCO2  AUC(0-t) ratio (Sprague-Dawley rats, plasma; oral, 200 mg/kg; baseline: female over male): 1.06
CSc1ccccc1C(=O)NCCn1cc(C(=O)NCc2cccc(C)n2)c(=O)c2cc3c(cc21)OC(F)(F)O3  AUC(0-t) (Sprague-Dawley rat, male, plasma; intramuscular, 30 mg/kg of parent compound): 142 ± 40 ng·h/mL
COC[C@@H](CC(C)C)NC(=O)c1ccc(C)c(C)c1  AUC(0-t) ratio (Sprague-Dawley rats, plasma; oral, 30 mg/kg; baseline: female over male): 2.41
Cc1cccc(CNC(=O)c2cn(CCNC(=O)c3ccccc3Sc3c([N+](=O)[O-])ncn3C)c3cc4c(cc3c2=O)OC(F)(F)O4)n1  AUC(0-t) (Sprague-Dawley rat, male, whole blood; intramuscular, 30 mg/kg of parent compound): 147 ± 87.7 ng·h/mL
O=C1c2ccncc2C(=O)c2c1[nH]c1ccccc21  AUC(0-t) (Sprague-Dawley rat male, plasma; intravenous, 5 mg/kg): 2.5 ± 1.29 µM·h
Cc1cccc(CNC(=O)c2cn(CCNC(=O)c3ccccc3S)c3cc4c(cc3c2=O)OC(F)(F)O4)n1  AUC(0-t) (Sprague-Dawley rat, male, whole blood; intramuscular, 30 mg/kg of parent compound): 3950 ± 1520 ng·h/mL
C=CC(=O)N1CCC([C@@H]2CCNc3c(C(N)=O)c(-c4ccc(Oc5ccccc5)cc4)nn32)CC1  AUC(0-t) fold change (Sprague-Dawley rat; oral, dose not given, added: posaconazole; baseline: alone): 0.98 fold
